Results of several laboratories.
Protocols differ between the studies behind these lines. “And” joins repeats or separate records; there may be more than shown. Numbers after ± are the reported error.
B1: human sideroflexin-3; sequence looked up; chain MGELPLDINIQEPRWDQSTFLGRARHFFTVTDPRNLLLSGAQLEASRNIVQNYRAGVVTPGITEDQLWRAKYVYDSAFHPDTGEKVVLIGRMSAQVPMNMTITGCMLTFYRKTPTVVFWQWVNQSFNAIVNYSNRSGDTPITVRQLGTAYVSATTGAVATALGLKSLTKHLPPLVGRFVPFAAVAAANCINIPLMRQRELQVGIPVADEAGQRLGYSVTAAKQGIFQVVISRICMAIPAMAIPPLIMDTLEKKDFLKRRPWLGAPLQVGLVGFCLVFATPLCCALFPQKSSIHISNLEPELRAQIHEQNPSVEVVYYNKGL
B2: Aralar1, human; sequence looked up; chain AVKVQTTKRGDPHELRNIFLQYASTEVDGERYMTPEDFVQRYLGLYNDPNSNPKIVQLLAGVADQTKDGLISYQEFLAFESVLCAPDSMFIVAFQLFDKSGNGEVTFENVKEIFGQTIIHHHIPFNWDCEFIRLHFGHNRKKHLNYTEFTQFLQELQLEHARQAFALKDKSKSGMISGLDFSDIMVTIRSHMLTPFVEENLVSAAGGSISHQVSFSYFNAFNSLLNNMELVRKIYSTLAGTRKDVEVTKEEFAQSAIRYGQVTPLEIDILYQLADLYNASGRLTLADIERIAPLAEGALPYNLAELQRQQSPGLGRPIWLQIAESAYRFTLGSVAGAVGATAVYPIDLVKTRMQNQRGSGSVVGELMYKNSFDCFKKVLRYEGFFGLYRGLIPQLIGVAPEKAIKLTVNDFVRDKFTRRDGSVPLPAEVLAGGCAGGSQVIFTNPLEIVKIRLQVAGEITTGPRVSALNVLRDLGIFGLYKGAKACFLRDIPFSAIYFPVYAHCKLLLADENGHVGGLNLLAAGAMAGVPAASLVTPADVIKTRLQVAARAGQTTYSGVIDCFRKILREEGPSAFWKGTAARVFRSSPQFGVTLVTYELLQRWFYIDFGGLKPAGSEPTPKSRIADLPPANPDHIGGYRLATATFAGIENKFGLYLPKFKSPSVAVVQPKAAVAATQ
B3: human TUBB; sequence looked up; chain MREIVHIQAGQCGNQIGAKFWEVISDEHGIDPTGTYHGDSDLQLDRISVYYNEATGGKYVPRAILVDLEPGTMDSVRSGPFGQIFRPDNFVFGQSGAGNNWAKGHYTEGAELVDSVLDVVRKEAESCDCLQGFQLTHSLGGGTGSGMGTLLISKIREEYPDRIMNTFSVVPSPKVSDTVVEPYNATLSVHQLVENTDETYCIDNEALYDICFRTLKLTTPTYGDLNHLVSATMSGVTTCLRFPGQLNADLRKLAVNMVPFPRLHFFMPGFAPLTSRGSQQYRALTVPELTQQVFDAKNMMAACDPRHGRYLTVAAVFRGRMSMKEVDEQMLNVQNKNSSYFVEWIPNNVKTAVCDIPPRGLKMAVTFIGNSTAIQELFKRISEQFTAMFRRKAFLHWYTGEGMDEMEFTEAESNMNDLVSEYQQYQDATAEEEEDFGEEAEEEA
B4: human PABP3; sequence looked up; chain MNPSTPSYPTASLYVGDLHPDVTEAMLYEKFSPAGPILSIRICRDLITSGSSNYAYVNFQHTKDAEHALDTMNFDVIKGKPVRIMWSQRDPSLRKSGVGNIFVKNLDKSINNKALYDTVSAFGNILSCNVVCDENGSKGYGFVHFETHEAAERAIKKMNGMLLNGRKVFVGQFKSRKEREAELGARAKEFPNVYIKNFGEDMDDERLKDLFGKFGPALSVKVMTDESGKSKGFGFVSFERHEDAQKAVDEMNGKELNGKQIYVGRAQKKVERQTELKRTFEQMKQDRITRYQVVNLYVKNLDDGIDDERLRKAFSPFGTITSAKVMMEGGRSKGFGFVCFSSPEEATKAVTEMNGRIVATKPLYVALAQRKEERQAYLTNEYMQRMASVRAVPNQRAPPSGYFMTAVPQTQNHAAYYPPSQIARLRPSPRWTAQGARPHPFQNKPSAIRPGAPRVPFSTMRPASSQVPRVMSTQRVANTSTQTVGPRPAAAAAAAATPAVRTVPRYKYAAGVRNPQQHRNAQPQVTMQQLAVHVQGQETLTASRLASAPPQKQKQMLGERLFPLIQAMHPTLAGKITGMLLEIDNSELLYMLESPESLRSKVDEAVAVLQAHQAKEATQKAVNSATGVPTV
B5: human erbin; sequence looked up; chain MTTKRSLFVRLVPCRCLRGEEETVTTLDYSHCSLEQVPKEIFTFEKTLEELYLDANQIEELPKQLFNCQSLHKLSLPDNDLTTLPASIANLINLRELDVSKNGIQEFPENIKNCKVLTIVEASVNPISKLPDGFSQLLNLTQLYLNDAFLEFLPANFGRLTKLQILELRENQLKMLPKTMNRLTQLERLDLGSNEFTEVPEVLEQLSGLKEFWMDANRLTFIPGFIGSLKQLTYLDVSKNNIEMVEEGISTCENLQDLLLSSNSLQQLPETIGSLKNITTLKIDENQLMYLPDSIGGLISVEELDCSFNEVEALPSSIGQLTNLRTFAADHNYLQQLPPEIGSWKNITVLFLHSNKLETLPEEMGDMQKLKVINLSDNRLKNLPFSFTKLQQLTAMWLSDNQSKPLIPLQKETDSETQKMVLTNYMFPQQPRTEDVMFISDNESFNPSLWEEQRKQRAQVAFECDEDKDEREAPPREGNLKRYPTPYPDELKNMVKTVQTIVHRLKDEETNEDSGRDLKPHEDQQDINKDVGVKTSESTTTVKSKVDEREKYMIGNSVQKISEPEAEISPGSLPVTANMKASENLKHIVNHDDVFEESEELSSDEEMKMAEMRPPLIETSINQPKVVALSNNKKDDTKETDSLSDEVTHNSNQNNSNCSSPSRMSDSVSLNTDSSQDTSLCSPVKQTHIDINSKIRQEDENFNSLLQNGDILNSSTEEKFKAHDKKDFNLPEYDLNVEERLVLIEKSVDSTATADDTHKLDHINMNLNKLITNDTFQPEIMERSKTQDIVLGTSFLSINSKEETEHLENGNKYPNLESVNKVNGHSEETSQSPNRTEPHDSDCSVDLGISKSTEDLSPQKSGPVGSVVKSHSITNMEIGGLKIYDILSDNGPQQPSTTVKITSAVDGKNIVRSKSATLLYDQPLQVFTGSSSSSDLISGTKAIFKFDSNHNPEEPNIIRGPTSGPQSAPQIYGPPQYNIQYSSSAAVKDTLWHSKQNPQIDHASFPPQLLPRSESTENQSYAKHSANMNFSNHNNVRANTAYHLHQRLGPARHGEMWAISPNDRLIPAVTRSTIQRQSSVSSTASVNLGDPGSTRRAQIPEGDYLSYREFHSAGRTPPMMPGSQRPLSARTYSIDGPNASRPQSARPSINEIPERTMSVSDFNYSRTSPSKRPNARVGSEHSLLDPPGKSKVPRDWREQVLRHIEAKKLEKKHPQTSSSGDPCQDGIFISGQQNYSSATLSHKDVPPDSLMKMPLSNGQMGQPLRPQANYSQIHHPPQASVARHPSREQLIDYLMLKVAHQPPYTQPHCSPRQGHELAKQEIRVRVEKDPELGFSISGGVGGRGNPFRPDDDGIFVTRVQPEGPASKLLQPGDKIIQANGYSFINIEHGQAVSLLKTFQNTVELIIVREVSS
Sequence of UniProt P26368 (whole entry, looked up): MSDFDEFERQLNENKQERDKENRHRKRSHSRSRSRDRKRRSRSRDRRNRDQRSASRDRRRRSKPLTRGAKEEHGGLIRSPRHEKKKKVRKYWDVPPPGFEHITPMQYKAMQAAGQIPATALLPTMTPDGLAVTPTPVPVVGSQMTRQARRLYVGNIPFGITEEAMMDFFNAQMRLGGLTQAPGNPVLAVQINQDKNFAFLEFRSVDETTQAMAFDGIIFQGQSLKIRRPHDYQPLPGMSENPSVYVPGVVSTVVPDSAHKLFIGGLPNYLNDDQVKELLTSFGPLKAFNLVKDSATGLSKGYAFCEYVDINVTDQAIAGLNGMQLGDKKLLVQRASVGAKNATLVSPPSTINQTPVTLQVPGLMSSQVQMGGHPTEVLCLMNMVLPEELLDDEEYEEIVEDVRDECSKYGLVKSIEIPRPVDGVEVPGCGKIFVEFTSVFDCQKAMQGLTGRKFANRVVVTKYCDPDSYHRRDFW

Molecule | tested on | assay | system | conditions | how to read | quantity | result
methyl-β-cyclodextrin | KCNH2 (Homo sapiens, UniProt Q12809) | whole-cell patch clamp |  | concentration not given, at -10 mV |  | peak current density | 41 ± 9.5 pA/pF
human TAF12 | PP6C (human) | co-immunoprecipitation, IP-MS | CYB5R4 knockout cells | concentration not given | relative to: CYB5R4 knockout over parental | log2 fold change | -2.42
adrenomedullin |  | RP-HPLC | HALO Phenyl-hexyl column | 25 µM, acetic acid/methanol, 10 min gradient |  | retention time | 7.92 min
KPGKGSETVV | construct, MBP fusion, human SCRIB, PDZ 3-4 | automated holdup | peptide, crude extract | concentration not given, corrected by standard peak, unit not given | relative to: biotin control resin, higher = stronger binding | binding intensity | 0.136
AAAAUGUUUUUUUCUAAGA (ssRNA) | U2AF2 148-342 (Homo sapiens, UniProt P26368) | ITC | RNA |  |  | Kd | 463 ± 140 nM
human ME2 D102S |  | enzyme activity, NADH absorbance |  | without fumarate, with: L-malate varied |  | Hill coefficient | 1.72 ± 0.05
semaglutide |  |  | Wistar rat, male, diet-induced obese | subcutaneous, dose not given, day 44 | relative to: vehicle | body weight reduction | -14.7%
MTVCNASQRQAHAQATAVSL | H322 | phage binding | peptide |  | relative to: targeting over control phage | selectivity ratio | 0.71 ± 0.23
TASPAKETSF | construct, MBP fusion, human SCRIB, PDZ 3-4 | automated holdup | peptide, crude extract | concentration not given, corrected by standard peak, unit not given | relative to: biotin control resin, higher = stronger binding | binding intensity | 0.731
B1 (human sideroflexin-3) | CYB5R4 knockout human cells | PP4 interaction, 3xFLAG-PP4C IP-MS |  | concentration not given | relative to: CYB5R4 KO over parental | log2 fold change | 2.38
Peginesatide | UT7/EPO | RT-qPCR, refers to: SOCS1 |  | concentration not given, 90 min, normalized to HPRT1 | relative to: vehicle | mRNA level | 4.2 fold
human ME2 L79F |  | enzyme activity, NADH absorbance |  | without fumarate, with: L-malate varied |  | Hill coefficient | 1 ± 0.01
B2 (Aralar1, human) | PP6C (human) | co-immunoprecipitation, IP-MS | CYB5R4 knockout cells | concentration not given | relative to: CYB5R4 knockout over parental | log2 fold change | -0.0363
cotadutide |  | metabolomics, refers to: hepatic threonine | ob/ob mice on AMLN diet, NASH model, liver | dose not given |  | metabolite level | 1.05 ± 0.04 scaled intensity
GSGAGSETSV | construct, MBP fusion, human SCRIB, PDZ 3-4 | automated holdup | peptide, purified PDZ protein | concentration not given, unit not given | relative to: biotin control resin, higher = stronger binding | binding intensity | 0.299
Nisin | Bacillus subtilis |  | ATCC 6633 | concentration not given |  | nucleoid perimeter | 3.84 µm and 4.32 µm and 3.98 µm
B3 (human TUBB) | PP6C (human) | co-immunoprecipitation, IP-MS | CYB5R4 knockout cells | concentration not given | relative to: CYB5R4 knockout over parental | log2 fold change | -0.63
maraviroc |  | Western blot, refers to: GSK-3β phospho-Tyr216 | mice, NSG hu-PBL, HIV-infected, frontal cortex | i.p., 120 mg/kg twice daily, 3 weeks post infection, normalised to total GSK-3β | relative to: HIV-infected untreated mice, decrease | protein level | 3.8 fold
colistin | Pseudomonas aeruginosa |  | clinical isolate RKI 613/16 |  |  | MIC | 1 mg/L
B4 (human PABP3) | CYB5R4 knockout human cells | PP6 interaction, 3xFLAG-PP6C IP-MS |  | concentration not given | relative to: CYB5R4 KO over parental | log2 fold change | -0.52
epoetin alfa | UT7/EPO | phosphorylation, agonist, refers to: phospho-GSK-3β |  | 10 min |  | EC50 | 0.021 nM
B5 (human erbin) | CYB5R4 knockout human cells | PP4 interaction, 3xFLAG-PP4C IP-MS |  | concentration not given | relative to: CYB5R4 KO over parental | log2 fold change | 0.63
QGRWDHETIV | construct, MBP fusion, human SCRIB, PDZ 3-4 | automated holdup | peptide, purified PDZ protein | concentration not given, unit not given | relative to: biotin control resin, higher = stronger binding | binding intensity | 0.153

For quick reference, copied from above:
Molecule | tested on | assay | system | conditions | how to read | quantity | result
B2 (Aralar1, human) | PP6C (human) | co-immunoprecipitation, IP-MS | CYB5R4 knockout cells | concentration not given | relative to: CYB5R4 knockout over parental | log2 fold change | -0.0363
human TAF12 | PP6C (human) | co-immunoprecipitation, IP-MS | CYB5R4 knockout cells | concentration not given | relative to: CYB5R4 knockout over parental | log2 fold change | -2.42
methyl-β-cyclodextrin | KCNH2 (Homo sapiens, UniProt Q12809) | whole-cell patch clamp |  | concentration not given, at -10 mV |  | peak current density | 41 ± 9.5 pA/pF
